Measurements gathered from unrelated publications.
Every numbered part comes from another study and shows a few of its results, in no order.

Sample 1 — technique: RNA Bind-n-Seq; molecule type: RNA; medium: in vitro; tested at: 15 pmol; setting: 4-mer, random 30-nt RNA, single round; with: 3 µM DMDA-PatA, 2 mM AMP-PNP; reference: input library; reading: higher = stronger binding; quantity: 4-mer enrichment
Target: Eukaryotic initiation factor 4A-I (EIF4A1, Homo sapiens, UniProt P60842, residues 1-406, full length assumed)
Chain of UniProt P60842 (whole entry, looked up): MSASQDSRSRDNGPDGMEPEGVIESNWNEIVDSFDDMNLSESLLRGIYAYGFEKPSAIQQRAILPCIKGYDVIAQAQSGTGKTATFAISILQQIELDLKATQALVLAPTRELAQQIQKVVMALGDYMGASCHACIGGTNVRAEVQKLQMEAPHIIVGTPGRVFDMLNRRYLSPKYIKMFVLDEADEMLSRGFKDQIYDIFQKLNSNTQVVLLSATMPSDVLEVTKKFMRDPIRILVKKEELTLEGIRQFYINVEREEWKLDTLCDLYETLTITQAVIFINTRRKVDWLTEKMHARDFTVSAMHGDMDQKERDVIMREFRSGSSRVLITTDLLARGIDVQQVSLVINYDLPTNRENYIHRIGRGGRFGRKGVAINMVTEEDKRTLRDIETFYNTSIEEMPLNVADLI
GAUC: 1.52 fold
GACA: 0.776 fold
ACCC: 0.407 fold
CGGA: 1.12 fold
GCAC: 0.786 fold
CCUG: 0.567 fold

Sample 2 — effect on: enzyme activity; action: inhibitor; tested at: 20 µM; setting: primary screen; quantity: inhibition
Target: Replicase polyprotein 1ab, main protease (rep, Severe acute respiratory syndrome coronavirus 2, UniProt P0DTD1)
O=C(/C=C/c1ccc2ccc(C(F)(F)F)cc2n1)c1ccncc1: 52.4%
O=c1c2ccccc2sn1-c1ccccc1: 100%
C=C1/C(=C\C=C2/CCC[C@]3(C)[C@@H]([C@H](C)CCCC(O)(C(F)(F)F)C(F)(F)F)CC[C@@H]23)C[C@@H](O)C[C@@H]1O: 26.6%
O=S(=O)(/N=C/c1c(O)ccc2ccccc12)c1cccs1: 57.7%

Sample 3 — effect on: enzyme activity; action: inhibitor; tested at: 20 µM; quantity: inhibition
Target: Replicase polyprotein 1ab, polymerase (rep, Severe acute respiratory syndrome coronavirus 2, UniProt P0DTD1)
CC(C(=O)O)c1ccc(C(=O)c2cccs2)cc1 (stereo not drawn): -0.46%
OC(CCN1CCCCC1)(c1ccccc1)c1ccccc1: 3.89%
O=C(NC1CC1)c1cc(-c2cccs2)on1: -6.74%
COC(=O)[C@H](CC(C)C)NC(=O)c1ccc(NC[C@@H](N)CS)cc1-c1cccc2ccccc12: -1.97%
C[C@@]1(F)[C@H](O)[C@@H](CO)O[C@H]1n1ccc(N)nc1=O: 0.33%
O=c1sn(-c2cccc3ccccc23)c(=O)n1Cc1ccccc1: 4.62%
O=C(c1ccc(OCCCc2c[nH]cn2)cc1)C1CC1: -1.67%
CN(C)[C@@H]1C(O)=C(C(N)=O)C(=O)[C@@]2(O)C(O)=C3C(=O)c4c(O)ccc(Cl)c4[C@@H](O)[C@H]3C[C@@H]12: 25.4%
Cc1oc(=O)oc1CN1CCN(c2cc3c(cc2F)c(=O)c(C(=O)O)c2n3C(C)S2)CC1 (stereo not drawn): 4.06%
O=C(Cc1ccccc1)Nc1nc2ccc(Cl)cc2c2nc(-c3ccco3)nn12: -2.21%
NC(N)=Nc1nc(CSCCN/C=N/S(=O)(=O)c2ccc(Br)cc2)cs1: 1.57%
c1cn2cc(-c3ccc4cn[nH]c4c3)nc(Nc3ccc(N4CCOCC4)cc3)c2n1: -4.61%
O=c1ccc2ccccc2o1: -7.36%
O=C(O)c1cc(O)c2c3nc4ccccc4oc-3cc(=O)c2n1: 5.96%
O=C(c1ccc(Cl)cc1)N(Cc1ccccc1)C1CCCCC1: 0.01%
CCCCCCCCCCCC(=O)OCC(O)CO (stereo not drawn): -11.7%
COc1cccc(OC)c1C(=O)N[C@@H]1C(=O)N2[C@@H]1SC(C)(C)[C@@H]2C(=O)O: 19.9%
N[C@@H]1c2cccnc2[C@H](OC(=O)N2CCC(n3c(=O)[nH]c4ncccc43)CC2)CC[C@H]1c1cccc(F)c1F: 2.79%
CC(=O)c1cnc2ccc(-c3cc(Cl)c(O)c(Cl)c3)nc2c1N[C@H]1CC[C@H](CN(C)C)CC1: 25.4%
O=c1c2ccccc2nc2n1CCc1c-2[nH]c2ccccc12: -2.36%
CCC(=O)Nc1cccc(Oc2nc(Nc3ccc(N4CCN(C)CC4)cc3OC)ncc2Cl)c1: 2.85%
CC1=CC[C@@H](C(C)(C)O)C[C@@H]1O: -5.97%
CN1CCN(c2c(F)cc3c(=O)c(C(=O)O)cn(CCF)c3c2F)CC1: 1.75%
NC1(C(=O)O)CC1: -4.94%
CC[N+](CC)(CC)CCC(O)(c1ccccc1)C1CCCCC1 (stereo not drawn): -3.54%

Sample 4 — organism: Vesicular stomatitis virus; effect on: pseudovirus infection; technique: FDA-approved drug library screen; tested at: concentration not given; setting: SARS-CoV-2 spike pseudotype; reference: vehicle; quantity: GFP-positive cells
Nc1nc(N)c2nc(-c3ccccc3)c(N)nc2n1: 72.2%
NC[C@@H]1O[C@H](O[C@H]2[C@@H](O)[C@H](O[C@@H]3[C@@H](O)[C@H](N)C[C@H](N)[C@H]3O[C@H]3O[C@H](CN)[C@@H](O)[C@H](O)[C@H]3N)O[C@@H]2CO)[C@H](N)[C@@H](O)[C@@H]1O.O=S(=O)(O)O: 89.7%
NC(=O)NO: 90.8%

Sample 5 — technique: RNA Bind-n-Seq; molecule type: RNA; medium: in vitro; tested at: 20 nM; setting: 6-mer, flanks averaged, single round; with: 150 mM KCl; reference: input library; reading: higher = stronger binding; quantity: 6-mer enrichment (R)
Target: TAR DNA-binding protein 43, full length, His tag (TARDBP, Homo sapiens, UniProt Q13148, residues 1-414)
CAUAAA: 0.628
UGUGGU: 1.47
GCACGA: 1.01
GUGAUA: 0.859
AUUAUA: 0.666
CUGGUU: 0.699
UGAGUC: 0.773
GAAUCG: 0.905

Sample 6 — technique: RNA Bind-n-Seq; molecule type: RNA; medium: in vitro; tested at: 365 nM; reference: no-protein control; reading: higher = stronger binding; quantity: RBNS enrichment (R)
Target: RNA binding protein fox-1 homolog 2, RRM domain, GST-SBP tag (RBFOX2, Homo sapiens, UniProt O43251-10, residues 100-194)
Setting: natural RNA segment, single round, ends assumed
Shared flanks, not repeated: GGGAGUUCUACAGUCCGACGAUC … UGGAAUUCUCGGGUGCCAA
Construct (chain): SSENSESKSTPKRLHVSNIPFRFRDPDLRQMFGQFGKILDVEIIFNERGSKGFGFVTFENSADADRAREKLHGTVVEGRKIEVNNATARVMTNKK
GGCUCAACAUUCCCUUCUAAAGCUGCAAGCCAAUCACUGUAACUGUAGCUGAGGAGGAGGGGAAGCCCCUUCAAAGUGUCGAUGUGGCCUUAUAAGUGUCAUACGUCACC: 0.177
GAAGCUCCUCGGUGCACUUUUGUCUCGGCAGAGCUGGGAGGGAGCAGGCGCUCGCGGAAGCACGUCACUUACUGGGUUUGUUCACCUGUUUCCAGCAAGUUUUGGUCUUU: 1.27
GACUAGGCUGAGGCUAGUGCUGGUGUGGACUCGUUGCCCACUGUCUUCCUGUUUAUGAUUAACUCUGGAUACCUGGGCAGGUGGGGCAGAGUGGGCAGGGAAGUGGCUUC: 5.37
GAAGCACAUAGUCAGCGGCUGGGGUUGAAGAGUGAGUGUCACCAUGCCUUUUAGUGGAGACCUGCAGGCAAGCCUUUGGCCCACUGAUCACUGCCUUUCCCCCUCCACCG: 0.226
UUGGUCUUAGUUUUGAUCCUGUUGCAGCAAAAUCCUGCAGCAUCUUUCUCUCCAAUAAUGUUGCAACUCACCAAAACUAUUCUUGAAGAGGUCCAAGAACAUGUAUUAUC: 1.18
UAACUCAAAAAUUAGGAUGCAAGAGAAAAUACUUCUCUAGAUCCAAACACUGGCCUUCUGUUCCUCUUGAAAUUUACCUCCCAACUUGUUCAUCUCUGCCUUUGGACUAA: 0.556
GAAUUCAGAUCUCAAUAUUAGGGAGAGUUCUCCUUUGAGCAACUCCUUUGCUUUCACACAGCAUAGCUUAUAAUUUGAUUAUGUUUCCUUCUUCAUGGGAAAUGUUAAAA: 0.367
UGACCCAUCCUGUCUAUCUUCUCAGUUGAGUUUUUAAUCUCACUUUGGGUUUCCUUGUGAAGUUGGAGGGAAGUUUAUAAUAGCCUAACACUACCCCACCCCCAACUAGG: 0.239

For quick reference, copied from above (sample 3):
OC(CCN1CCCCC1)(c1ccccc1)c1ccccc1: 3.89%
O=C(NC1CC1)c1cc(-c2cccs2)on1: -6.74%
COC(=O)[C@H](CC(C)C)NC(=O)c1ccc(NC[C@@H](N)CS)cc1-c1cccc2ccccc12: -1.97%
C[C@@]1(F)[C@H](O)[C@@H](CO)O[C@H]1n1ccc(N)nc1=O: 0.33%
O=c1sn(-c2cccc3ccccc23)c(=O)n1Cc1ccccc1: 4.62%
O=C(c1ccc(OCCCc2c[nH]cn2)cc1)C1CC1: -1.67%
CN(C)[C@@H]1C(O)=C(C(N)=O)C(=O)[C@@]2(O)C(O)=C3C(=O)c4c(O)ccc(Cl)c4[C@@H](O)[C@H]3C[C@@H]12: 25.4%
Cc1oc(=O)oc1CN1CCN(c2cc3c(cc2F)c(=O)c(C(=O)O)c2n3C(C)S2)CC1 (stereo not drawn): 4.06%
